Assay results pooled from the literature.
Lines come from different studies, so protocols differ. pEC50, pIC50: −log10 of the molar value.
Target: Tyrosine-protein kinase ABL1 (ABL1, Homo sapiens, UniProt P00519)
Chain of UniProt P00519 (whole entry, looked up): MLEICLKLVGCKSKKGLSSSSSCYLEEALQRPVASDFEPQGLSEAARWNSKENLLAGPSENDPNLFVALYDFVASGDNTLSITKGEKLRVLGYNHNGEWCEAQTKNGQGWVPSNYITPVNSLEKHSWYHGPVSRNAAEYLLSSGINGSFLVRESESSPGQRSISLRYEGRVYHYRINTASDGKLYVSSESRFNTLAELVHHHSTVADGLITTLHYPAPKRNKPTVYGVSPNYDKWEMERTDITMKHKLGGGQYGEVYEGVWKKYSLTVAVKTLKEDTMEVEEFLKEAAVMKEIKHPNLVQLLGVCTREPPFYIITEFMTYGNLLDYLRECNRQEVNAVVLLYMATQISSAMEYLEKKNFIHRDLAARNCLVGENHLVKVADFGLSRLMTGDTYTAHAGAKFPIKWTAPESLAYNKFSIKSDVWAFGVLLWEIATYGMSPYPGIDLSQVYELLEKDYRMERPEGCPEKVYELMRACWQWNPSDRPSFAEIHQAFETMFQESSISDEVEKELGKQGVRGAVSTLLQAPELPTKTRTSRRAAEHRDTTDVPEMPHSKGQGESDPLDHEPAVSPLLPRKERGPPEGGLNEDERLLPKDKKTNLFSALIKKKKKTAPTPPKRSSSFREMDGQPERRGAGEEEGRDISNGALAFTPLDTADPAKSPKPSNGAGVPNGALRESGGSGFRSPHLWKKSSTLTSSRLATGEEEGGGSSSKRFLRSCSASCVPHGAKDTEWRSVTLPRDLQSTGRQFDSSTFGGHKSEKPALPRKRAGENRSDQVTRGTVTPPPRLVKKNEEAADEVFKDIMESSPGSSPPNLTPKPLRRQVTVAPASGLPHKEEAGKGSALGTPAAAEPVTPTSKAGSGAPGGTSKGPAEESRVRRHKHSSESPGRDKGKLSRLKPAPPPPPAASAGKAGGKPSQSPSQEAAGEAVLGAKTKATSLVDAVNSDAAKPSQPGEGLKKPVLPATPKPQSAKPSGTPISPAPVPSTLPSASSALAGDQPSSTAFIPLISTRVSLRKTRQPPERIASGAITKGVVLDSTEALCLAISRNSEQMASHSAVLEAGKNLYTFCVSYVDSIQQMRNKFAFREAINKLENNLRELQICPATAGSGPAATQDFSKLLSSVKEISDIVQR

| Compound | test | endpoint | result |
| --- | --- | --- | --- |
| CC(=O)N[C@@H](Cc1c[nH]c2ccccc12)C(=O)N[C@@H](Cc1c[nH]c2ccccc12)C(=O)N[C@@H](Cc1c[nH]c2ccccc12)C(=O)N[C@@H](Cc1c[nH]c2ccccc12)C(=O)N[C@@H](Cc1c[nH]c2ccccc12)C(=O)N[C@@H](Cc1c[nH]c2ccccc12)C(=O)N[C@@H](Cc1c[nH]c2ccccc12)C(=O)NCCCC[C@@H]1NC(=O)[C@H](CCCNC(=N)N)NC(=O)[C@H](CCCNC(=N)N)NC(=O)[C@H](CCCNC(=N)N)NC(=O)[C@H](CCCNC(=N)N)NC(=O)[C@H](CCCNC(=N)N)NC1=O | enzyme activity, inhibitor, radiometric | pIC50 | 5.83 |
| COc1cc(-c2cnc3nc2NCCCNS(=O)(=O)c2cccc(c2)N3)ccc1F | target engagement in cells, BRET | pEC50 | 4.57 |
| CC(C)c1ccc(C(=O)Nc2ccc(CN3CCN(C)CC3)c(C(F)(F)F)c2)cc1C#Cc1cnc2cccnn12 | enzyme activity, inhibitor, ADP detection | pIC50 | 7.51 |
| N=C(N)NCCC[C@@H]1NC(=O)[C@H](Cc2c[nH]c3ccccc23)NC(=O)[C@H](CCCNC(=N)N)NC(=O)[C@H](Cc2c[nH]c3ccccc23)NC(=O)[C@H](CCCNC(=N)N)NC(=O)[C@H](Cc2c[nH]c3ccccc23)NC(=O)[C@H](CCCNC(=N)N)NC(=O)[C@H](Cc2c[nH]c3ccccc23)NC(=O)[C@H](CCCNC(=N)N)NC(=O)[C@H](Cc2c[nH]c3ccccc23)NC(=O)[C@H](CCCNC(=N)N)NC(=O)[C@H](Cc2c[nH]c3ccccc23)NC(=O)[C@H](CCCNC(=N)N)NC(=O)[C@H](Cc2c[nH]c3ccccc23)NC(=O)[C@H](CCCNC(=N)N)NC(=O)[C@H](Cc2c[nH]c3ccccc23)NC(=O)[C@H](CCCNC(=N)N)NC(=O)[C@H](Cc2c[nH]c3ccccc23)NC1=O | enzyme activity, inhibitor, radiometric | pIC50 | 6.46 |
| Cc1nc(Nc2ncc(C(=O)Nc3c(C)cccc3Cl)s2)cc(N2CCN(CCOC(=O)[C@@H](N)CS)CC2)n1 |  | pIC50 | 7.17 |
| Cc1ccc2oc(-c3c4c(N)n[nH]c(=O)c4nn3-c3ccc(NC(=O)/C=C/CN(C)C)cc3)c(C)c2c1 | enzyme activity, inhibitor, ELISA | pIC50 | < 6.00 |
| CC(=O)N[C@@H](Cc1c[nH]c2ccccc12)C(=O)N[C@@H](Cc1c[nH]c2ccccc12)C(=O)N[C@@H](Cc1c[nH]c2ccccc12)C(=O)N[C@@H](Cc1c[nH]c2ccccc12)C(=O)N[C@@H](Cc1c[nH]c2ccccc12)C(=O)N[C@@H](Cc1c[nH]c2ccccc12)C(=O)NCCCC[C@@H]1NC(=O)[C@H](CCCNC(=N)N)NC(=O)[C@H](CCCNC(=N)N)NC(=O)[C@H](CCCNC(=N)N)NC(=O)[C@H](CCCNC(=N)N)NC(=O)[C@H](CCCNC(=N)N)NC(=O)[C@H](CCCNC(=N)N)NC1=O | enzyme activity, inhibitor, radiometric | pIC50 | 5.99 |
| Cc1nc(Nc2ncc(C(=O)Nc3c(C)cccc3Cl)s2)cc(N2CCN(CCOC(=O)[C@@H](N)CCC(=O)O)CC2)n1 |  | pIC50 | 8.36 |
| CCCc1ccc(NC(=O)c2ccccc2NCc2ccc(=O)[nH]c2)cc1C(F)(F)F | enzyme activity, inhibitor | pIC50 | 3.48 |
| CCCCCCCC(=O)OCCN1CCN(c2cc(Nc3ncc(C(=O)Nc4c(C)cccc4Cl)s3)nc(C)n2)CC1 |  | pIC50 | 7.29 |
| COCCOc1ccc2cc1S(=O)(=O)NCCCNc1nc(ncc1-c1ccc(F)c(OC)c1)N2 | target engagement in cells, BRET | pEC50 | 4.49 |

For quick reference, copied from above:
| Compound | test | endpoint | result |
| --- | --- | --- | --- |
| CCCc1ccc(NC(=O)c2ccccc2NCc2ccc(=O)[nH]c2)cc1C(F)(F)F | enzyme activity, inhibitor | pIC50 | 3.48 |
